Experimental data from different studies.
Parts stem from different laboratories: compare values within a part only. Substitutions count along the parent as printed.

Sample 1 — method: RNA Bind-n-Seq; molecule type: RNA; sample: in vitro; tested at: not given; relative to: input RNA pool; direction: higher = stronger binding
Target: RING finger protein unkempt homolog, zinc fingers 1-6, GST-SBP tag (UNK, Homo sapiens, UniProt Q9C0B0, residues 30-357)
UniProt Q9C0B0, sequence (30-357, looked up): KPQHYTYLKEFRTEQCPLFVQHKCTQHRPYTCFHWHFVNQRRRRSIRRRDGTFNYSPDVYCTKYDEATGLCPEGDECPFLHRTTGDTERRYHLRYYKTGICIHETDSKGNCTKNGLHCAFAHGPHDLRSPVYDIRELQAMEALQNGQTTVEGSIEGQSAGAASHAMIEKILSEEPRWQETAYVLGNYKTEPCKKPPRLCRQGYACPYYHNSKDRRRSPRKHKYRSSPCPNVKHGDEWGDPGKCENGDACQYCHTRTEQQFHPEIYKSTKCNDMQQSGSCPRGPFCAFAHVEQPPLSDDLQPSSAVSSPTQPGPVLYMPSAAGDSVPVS
Notes: RNA with constant flanks, human-mouse chimeric sites, ends assumed
Constant ends, left off below: GGGAGUUCUACAGUCCGACGAUC … CAACAGAGGAUUGAGCAUCA
Sequence	bound/input enrichment [ratio]
UUCAAAGAAAAGGGCAGCUGUGUCAUUACUUGGGAGACUCUGGGGGAGGGAAAUUCUGUUCUUUUGUUUAAUUUUCCCCCAAAUGAAGCCAAAGUGUGUGUUGAAGAACUGAGAAAAAAU	0.28
CUCUUUGAAUCAUUCAAGAGUUUUGAAGGUCUCUUUUAUUUUCUGGGGUCCAUUGUUAACUUUAGUCAGGACCCAGAUGUGCACUUUAAAUAUAUUCAGGCAGCUUGCAAGACUGGGCAA	0.642
CUGUGACCACAAGAUCCUACCUGAGUGGCAGCUGAAGUUGACUCCCUCUCCUUGCCUGAACCCCCCCCUUUUGUUCCCCCAUCCCCCAGUGUCGGCUGAGAUGUUGCCAGCAGACAGUUC	0.843
UCUGGUCACACUCGUGUGUAUGGUGUUUGCUUUGUGGACACUUCACUGGGCAAGUUUUUCAUAGGUCAGUUUUCGGAUGACCGCCACUGUUCCAGAUUUAGGACGCUAGUGGCACACUAU	0.244
GCUCCUCCCCGCUCUGCAGCCUGGGGACACUGGGCUGGGACCAGAAUCCAGCUUUCUUUUAAAACUCUCAGUGUAACUUCUUUUUCUUUUUUUCUUUUUUUUUUAAAUAGUGUAUUUUUU	81.4
AGAUAUUAAGUAUUUUGAAAAAACUCGAACAGAUUUGACAAGGGUAGCCAGCUUGGAGUCUAGCAAUUUGCCAAUGUGUUUACCAAUCUGGGGGCUUGUUUUUCUUUUCUUCUUUCAAAU	0.537
CGCUUGGAUGAGGCGGGUGUUACUGAUGAAGUGCUAGAUUCUGCCAUGCAAGCCUUCCUUCUGGAGGUCAUUGUUAAACAUGGGGAGCCGGCACCUUAUUUAUGUAACAAAGAUCCGUUU	0.122
UCUUUAAAAAAAAAAUUACAGGAAAAUACAGUGCUUUCCCUCCCAUAGAUCCACGUUCAAGCUCAAAGGCCAAAACUUUUGCACGGAGCUCAAACAUCUGAUGAAGAAAGAUUUCUGAGA	1.33

Sample 2 — method: Spec-seq; molecule type: double-stranded DNA, one strand shown; sample: in vitro; tested at: not given; notes: whole probe, mean of replicates; relative to: not given; direction: lower = stronger binding; constant ends, left off below: GAGTCGTCTCGTCAGCAC … CCGTAGAGCACTCAGGTC
Target: POU, POU domain (Salpingoeca helianthica)
Residues (chain): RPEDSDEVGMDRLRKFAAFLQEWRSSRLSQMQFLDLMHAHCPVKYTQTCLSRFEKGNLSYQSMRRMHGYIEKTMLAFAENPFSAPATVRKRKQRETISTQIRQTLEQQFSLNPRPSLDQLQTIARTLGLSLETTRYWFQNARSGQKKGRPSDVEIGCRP
Sequence	relative binding energy [ln ratio]
ATGCTGAG	1.35
ATGGAAAT	1.21
ATTTAGAT	0.625
CAACTAAT	0.359
ATGCGTAC	1.33
ATGCCGCC	1.3
ATGCATCT	0.991
ATGCCTGT	1.14

Sample 3 — method: RNA Bind-n-Seq; molecule type: RNA; sample: in vitro; tested at: 365 nM; relative to: no-protein control; direction: higher = stronger binding
Target: RNA binding protein fox-1 homolog 2, RRM domain, GST-SBP tag (RBFOX2, Homo sapiens, UniProt O43251-10, residues 100-194)
Notes: natural RNA segment, single round, ends assumed
Constant ends, left off below: GGGAGUUCUACAGUCCGACGAUC … UGGAAUUCUCGGGUGCCAA
Construct (chain): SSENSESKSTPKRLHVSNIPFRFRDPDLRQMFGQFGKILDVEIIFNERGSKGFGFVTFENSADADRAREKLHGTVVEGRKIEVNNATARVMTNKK
Sequence	RBNS enrichment (R)
CCACACUAUGUGUGUUGUUUCCAUAGCUCUUCACUUCCUCCAGAAGCCUCCUUACAUUAAAAAGCCUUACAGUUAUCCUGCAAGGGACAGGAAGGUCUGAUUUGCAGGAU	0.442
UAUGAGUUAAUGUGAAGUUGUAAAUGGGAAUCUAUAGCAAUGAUGUCUGUAUAAAUCUGUCUUAUCUAGAACUUGUGCUGUCAGGGCACUCUUCCUCACGCUGUUGUUAC	0.758
GGAAGCAGAUGUACAUACUACAUACAUGUCACAUACUACAUACAUGUCAUGUACUACACACAUGUCAUAUAGUACAUACAUGUCAUGUCCAUUUAACGACUGGUCACCUG	0.226
UAGAUAGAUGCCAAGCUUCUUAUGUUCUGGGGGUAGUAUGCAUCAUUAUUGGGUCUCUGCCUUAAAACACAUCAAAAUUCAUUUUAGACAAAAAAACUUCUGCUUUGUCU	0.477
AAUUUUAAGUGGUAAGCAUUUUGCAUUAAAAUAUUCCUAUAAUAUUUUGUCGCUGUUCUUUGUCCUUUAUUCUUUGUUUACUCUCUCGAAAAUAAAAGGGCUAAACUAUU	0.834
ACUGAGGAAAAUGGUGUUUUCCUCAAGAAGACUACUGGAACUGGAUGACCUCAGAAUGAACUGGAUUGUGGUGUUCACAAGAAAAUCUUAGUUUGUGAUGAUUACAUUGC	0.373
UAACUUUUGUUGCCUCUUAACGCCACCAAAUUUUAGGGUAAUUUGAUUAUGAAAGAGUGAAUUUUUCUGGACAGAAAAGGGAGAGCUACCAAAUUGUUUUUUUCUUUUUA	0.828
CCAUGCCUGUGGGGAAACACUGCUUCAGAAAGCCUUCACCUACCCUCUGCCUCUAUUUCCCAGGACACCUAGAGGAUUCCCUUCUGAACCACCCCAGUGGGGUCUACCUG	1.94

Sample 4 — target: CCND2, cyclin fold, Cln2 fusion (human); method: yeast growth competition, sequencing; sample: yeast; notes: weak parent motif; relative to: not given; direction: higher = stronger binding; parent: viral docking peptide; TSVRRALFTGGSD
Change	normalised enrichment score
TSVRQALFTGGSD [R5Q]	0.0966
TSVRRALFTGMSD [G11M]	-0.13
TEVRRALFTGGSD [S2E]	0.197
TSVRRALDTGGSD [F8D]	-0.0642
TSVRRALSTGGSD [F8S]	0.333
TSVRRCLFTGGSD [A6C]	0.225
TSVRRALRTGGSD [F8R]	-0.0519
TSVRRRLFTGGSD [A6R]	-0.109
TSVRRALFTGGQD [S12Q]	0.197
TSQRRALFTGGSD [V3Q]	-0.312
TSVRRFLFTGGSD [A6F]	-0.11
TSVRRPLFTGGSD [A6P]	-0.116
TSVRRALFTWGSD [G10W]	0.0396
TSVRRADFTGGSD [L7D]	-0.164
TSVRRKLFTGGSD [A6K]	-0.091

Some of these lines once more (sample 2):
Sequence	relative binding energy [ln ratio]
CAACTAAT	0.359
ATGCGTAC	1.33
ATTTAGAT	0.625
